Measurements of several laboratories.
Each numbered part is a random draw from the data of one study; scales do not carry over between parts. Substitutions count along the parent as printed.
Chain of UniProt P38919 (whole entry, looked up): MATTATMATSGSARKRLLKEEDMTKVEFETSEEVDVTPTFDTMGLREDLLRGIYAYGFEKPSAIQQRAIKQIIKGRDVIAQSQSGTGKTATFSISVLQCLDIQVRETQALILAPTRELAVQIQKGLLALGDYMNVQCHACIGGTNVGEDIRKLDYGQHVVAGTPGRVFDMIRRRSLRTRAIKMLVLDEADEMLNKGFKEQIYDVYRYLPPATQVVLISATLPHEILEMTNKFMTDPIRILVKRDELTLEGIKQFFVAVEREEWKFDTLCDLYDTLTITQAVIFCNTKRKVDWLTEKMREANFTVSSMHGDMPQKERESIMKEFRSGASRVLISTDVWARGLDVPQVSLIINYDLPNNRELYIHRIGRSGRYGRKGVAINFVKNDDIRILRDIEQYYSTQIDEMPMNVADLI

Series 1 — target: CCNB1, cyclin fold, Cln2 fusion (human); technique: yeast growth competition, sequencing; sample: yeast; notes: strong parent motif; relative to: not given; direction: higher = stronger binding
Starting sequence: viral docking peptide; YKVKRRLVFGADD; partner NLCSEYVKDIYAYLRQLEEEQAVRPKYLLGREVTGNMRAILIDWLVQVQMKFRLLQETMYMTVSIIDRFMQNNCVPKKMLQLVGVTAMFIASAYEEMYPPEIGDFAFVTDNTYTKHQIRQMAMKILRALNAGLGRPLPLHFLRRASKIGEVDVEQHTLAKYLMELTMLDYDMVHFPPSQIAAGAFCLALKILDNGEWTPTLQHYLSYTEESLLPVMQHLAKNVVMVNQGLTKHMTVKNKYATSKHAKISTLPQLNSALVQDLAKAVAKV
`L7T`: “normalised enrichment score” 0.0537.
For `V3H`, “normalised enrichment score” read 0.215.
For `R5S`, “normalised enrichment score” read 0.877.
`L7M` — result for “normalised enrichment score”: 0.703.
For `V8F`, “normalised enrichment score” read 3.62.
`V8L`: “normalised enrichment score” 2.9.
For `D12R`, “normalised enrichment score” read 0.93.
`V3A` — result for “normalised enrichment score”: 0.852.

Series 2 — target: inorganic phosphate, free oxyanion; technique: microfluidic competitive inhibition; sample: in vitro, cell-free expressed; concentration: not given; direction: lower = stronger binding
Notes: derived from inhibition constants, unchanged parent 615000 nM
Starting sequence: PafA, mature enzyme, eGFP fusion (Elizabethkingia meningoseptica, UniProt Q9KJX5); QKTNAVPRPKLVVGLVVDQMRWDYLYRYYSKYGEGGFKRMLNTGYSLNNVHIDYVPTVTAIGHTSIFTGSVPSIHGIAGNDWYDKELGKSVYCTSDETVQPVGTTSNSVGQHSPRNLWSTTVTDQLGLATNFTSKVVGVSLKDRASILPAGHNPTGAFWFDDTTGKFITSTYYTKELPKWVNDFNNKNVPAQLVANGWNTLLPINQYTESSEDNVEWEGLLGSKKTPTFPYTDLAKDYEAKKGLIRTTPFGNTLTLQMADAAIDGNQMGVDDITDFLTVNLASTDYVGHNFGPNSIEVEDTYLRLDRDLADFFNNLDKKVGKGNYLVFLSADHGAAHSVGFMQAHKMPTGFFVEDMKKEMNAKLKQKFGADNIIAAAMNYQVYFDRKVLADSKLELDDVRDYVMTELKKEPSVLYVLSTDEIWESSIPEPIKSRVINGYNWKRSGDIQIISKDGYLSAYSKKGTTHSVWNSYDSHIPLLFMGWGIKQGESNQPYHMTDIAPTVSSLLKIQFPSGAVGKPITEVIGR
Under “phosphate dissociation constant”, `P56V` is recorded as 254 µM.
`N315V`: “phosphate dissociation constant” 684 µM.
`L41V` — result for “phosphate dissociation constant”: 578 µM.
`L417G` — result for “phosphate dissociation constant”: 625 µM.
Under “phosphate dissociation constant”, `H75V` is recorded as 384 µM.
Under “phosphate dissociation constant”, `K358G` is recorded as 587 µM.
Under “phosphate dissociation constant”, `D385G` is recorded as 480 µM.
`V298G` — result for “phosphate dissociation constant”: 545 µM.

Single results of other studies
Under “grade 3 liver injury incidence”, `COc1ccc(-c2c(Nc3ccccn3)[nH]c3c(C4=CCCCC4)c(-c4ccccc4)nn3c2=O)cc1` is recorded as 5% (patients with advanced malignancies; oral, dose not given, treatment-emergent adverse events).
`COC(=O)[C@H]1[C@H](c2ccccc2)[C@]2(c3ccc(OC)cc3)Oc3cc(OC)cc(OC)c3[C@@]1(O)C2O` (stereo partly shown): “fluorescence polarization change” -5.4 mP (Eukaryotic initiation factor 4A-III (Homo sapiens, UniProt P38919); RNA clamping, fluorescence polarization; concentration not given, with: FAM-labelled poly r(AG)8 RNA).
Under “half-life of parasite killing”, `CNC(=O)c1ccc(-c2cnn3ccc(C(=O)N(C)c4ccc(Cl)c(C(=O)OC)c4)cc23)cc1` is recorded as 16.1 h (Cryptosporidium parvum; time-kill, one-phase decay fit; nanoluciferase-expressing; 20 µM).
